{"data": "Assay results gathered from unrelated publications", "read-out": "binding", "CSNK1A1": "Casein kinase I isoform alpha (CSNK1A1, Homo sapiens, UniProt P48729)", "tapT": "tapT (Escherichia coli, UniProt Q47319)", "note": "Protocols differ between the studies behind these lines.", "UniProt P48729, sequence (whole entry, looked up)": "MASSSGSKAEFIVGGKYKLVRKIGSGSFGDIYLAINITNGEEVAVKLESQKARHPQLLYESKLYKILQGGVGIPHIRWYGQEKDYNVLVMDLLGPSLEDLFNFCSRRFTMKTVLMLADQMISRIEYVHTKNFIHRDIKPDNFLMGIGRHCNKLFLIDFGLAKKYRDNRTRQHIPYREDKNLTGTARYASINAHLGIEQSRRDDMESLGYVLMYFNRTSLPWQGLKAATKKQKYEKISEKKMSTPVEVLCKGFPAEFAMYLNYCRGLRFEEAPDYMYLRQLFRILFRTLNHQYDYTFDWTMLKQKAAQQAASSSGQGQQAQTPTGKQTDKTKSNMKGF", "UniProt Q47319, sequence (whole entry, looked up)": "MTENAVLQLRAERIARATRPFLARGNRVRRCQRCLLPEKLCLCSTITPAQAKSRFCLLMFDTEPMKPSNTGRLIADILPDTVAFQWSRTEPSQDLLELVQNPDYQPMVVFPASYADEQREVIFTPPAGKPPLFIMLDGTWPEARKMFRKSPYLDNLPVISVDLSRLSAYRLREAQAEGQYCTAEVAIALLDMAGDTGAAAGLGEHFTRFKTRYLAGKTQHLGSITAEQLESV", "UniProt Q8N8S7, sequence (whole entry, looked up)": "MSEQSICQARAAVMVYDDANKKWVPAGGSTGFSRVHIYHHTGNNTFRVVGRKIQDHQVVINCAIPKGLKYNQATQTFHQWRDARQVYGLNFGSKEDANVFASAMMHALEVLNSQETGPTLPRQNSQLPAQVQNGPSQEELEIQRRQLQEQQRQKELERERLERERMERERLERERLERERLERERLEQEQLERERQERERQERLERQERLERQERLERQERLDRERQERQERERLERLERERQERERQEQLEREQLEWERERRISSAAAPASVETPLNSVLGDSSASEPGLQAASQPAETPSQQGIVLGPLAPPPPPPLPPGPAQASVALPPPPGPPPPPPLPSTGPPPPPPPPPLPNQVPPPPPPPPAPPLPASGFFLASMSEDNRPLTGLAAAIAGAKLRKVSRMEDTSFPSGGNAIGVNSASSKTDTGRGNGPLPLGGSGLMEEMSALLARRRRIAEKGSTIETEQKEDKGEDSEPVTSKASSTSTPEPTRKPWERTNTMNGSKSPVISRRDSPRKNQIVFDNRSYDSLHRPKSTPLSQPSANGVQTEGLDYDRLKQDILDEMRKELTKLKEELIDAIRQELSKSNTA", "UniProt P07339, sequence (whole entry, looked up)": "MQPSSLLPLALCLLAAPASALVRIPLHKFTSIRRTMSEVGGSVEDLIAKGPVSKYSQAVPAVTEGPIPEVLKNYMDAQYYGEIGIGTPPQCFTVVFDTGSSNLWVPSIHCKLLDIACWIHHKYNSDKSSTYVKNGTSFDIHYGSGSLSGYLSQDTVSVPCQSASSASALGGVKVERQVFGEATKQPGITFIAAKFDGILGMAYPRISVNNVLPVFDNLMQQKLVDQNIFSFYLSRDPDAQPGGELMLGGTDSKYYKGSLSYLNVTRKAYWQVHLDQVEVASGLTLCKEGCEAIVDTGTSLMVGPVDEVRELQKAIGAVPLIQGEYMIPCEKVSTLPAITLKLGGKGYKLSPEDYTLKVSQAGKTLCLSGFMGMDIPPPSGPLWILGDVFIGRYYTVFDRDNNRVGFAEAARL", "UniProt P26196, sequence (whole entry, looked up)": "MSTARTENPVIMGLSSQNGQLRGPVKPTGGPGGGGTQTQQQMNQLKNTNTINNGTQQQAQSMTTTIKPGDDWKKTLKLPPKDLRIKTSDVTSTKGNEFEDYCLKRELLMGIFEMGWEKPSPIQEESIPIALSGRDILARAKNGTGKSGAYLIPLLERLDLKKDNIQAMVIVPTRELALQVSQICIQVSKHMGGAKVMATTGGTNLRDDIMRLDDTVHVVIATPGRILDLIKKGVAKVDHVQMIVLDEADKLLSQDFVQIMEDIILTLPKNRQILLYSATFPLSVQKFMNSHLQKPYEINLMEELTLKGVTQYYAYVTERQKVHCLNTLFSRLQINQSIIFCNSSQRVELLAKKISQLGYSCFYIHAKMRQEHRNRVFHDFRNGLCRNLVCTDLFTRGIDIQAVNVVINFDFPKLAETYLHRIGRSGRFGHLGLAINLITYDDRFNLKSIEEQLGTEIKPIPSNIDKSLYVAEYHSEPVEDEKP", "UniProt P09622, sequence (whole entry, unmodified, looked up)": "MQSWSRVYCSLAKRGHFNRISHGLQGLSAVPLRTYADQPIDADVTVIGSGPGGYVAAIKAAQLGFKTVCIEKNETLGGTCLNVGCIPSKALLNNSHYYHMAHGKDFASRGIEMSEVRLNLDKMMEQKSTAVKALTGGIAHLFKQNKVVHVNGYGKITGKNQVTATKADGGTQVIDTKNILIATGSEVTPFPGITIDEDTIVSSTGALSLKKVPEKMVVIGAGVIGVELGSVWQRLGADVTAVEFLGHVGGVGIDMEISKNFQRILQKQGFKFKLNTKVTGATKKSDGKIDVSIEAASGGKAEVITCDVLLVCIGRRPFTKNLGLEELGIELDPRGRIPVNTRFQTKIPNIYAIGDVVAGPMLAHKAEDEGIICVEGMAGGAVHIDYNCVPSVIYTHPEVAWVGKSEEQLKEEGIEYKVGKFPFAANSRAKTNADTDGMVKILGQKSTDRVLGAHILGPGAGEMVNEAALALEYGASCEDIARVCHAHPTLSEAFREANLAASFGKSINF", "UniProt Q56UN5, sequence (whole entry, looked up)": "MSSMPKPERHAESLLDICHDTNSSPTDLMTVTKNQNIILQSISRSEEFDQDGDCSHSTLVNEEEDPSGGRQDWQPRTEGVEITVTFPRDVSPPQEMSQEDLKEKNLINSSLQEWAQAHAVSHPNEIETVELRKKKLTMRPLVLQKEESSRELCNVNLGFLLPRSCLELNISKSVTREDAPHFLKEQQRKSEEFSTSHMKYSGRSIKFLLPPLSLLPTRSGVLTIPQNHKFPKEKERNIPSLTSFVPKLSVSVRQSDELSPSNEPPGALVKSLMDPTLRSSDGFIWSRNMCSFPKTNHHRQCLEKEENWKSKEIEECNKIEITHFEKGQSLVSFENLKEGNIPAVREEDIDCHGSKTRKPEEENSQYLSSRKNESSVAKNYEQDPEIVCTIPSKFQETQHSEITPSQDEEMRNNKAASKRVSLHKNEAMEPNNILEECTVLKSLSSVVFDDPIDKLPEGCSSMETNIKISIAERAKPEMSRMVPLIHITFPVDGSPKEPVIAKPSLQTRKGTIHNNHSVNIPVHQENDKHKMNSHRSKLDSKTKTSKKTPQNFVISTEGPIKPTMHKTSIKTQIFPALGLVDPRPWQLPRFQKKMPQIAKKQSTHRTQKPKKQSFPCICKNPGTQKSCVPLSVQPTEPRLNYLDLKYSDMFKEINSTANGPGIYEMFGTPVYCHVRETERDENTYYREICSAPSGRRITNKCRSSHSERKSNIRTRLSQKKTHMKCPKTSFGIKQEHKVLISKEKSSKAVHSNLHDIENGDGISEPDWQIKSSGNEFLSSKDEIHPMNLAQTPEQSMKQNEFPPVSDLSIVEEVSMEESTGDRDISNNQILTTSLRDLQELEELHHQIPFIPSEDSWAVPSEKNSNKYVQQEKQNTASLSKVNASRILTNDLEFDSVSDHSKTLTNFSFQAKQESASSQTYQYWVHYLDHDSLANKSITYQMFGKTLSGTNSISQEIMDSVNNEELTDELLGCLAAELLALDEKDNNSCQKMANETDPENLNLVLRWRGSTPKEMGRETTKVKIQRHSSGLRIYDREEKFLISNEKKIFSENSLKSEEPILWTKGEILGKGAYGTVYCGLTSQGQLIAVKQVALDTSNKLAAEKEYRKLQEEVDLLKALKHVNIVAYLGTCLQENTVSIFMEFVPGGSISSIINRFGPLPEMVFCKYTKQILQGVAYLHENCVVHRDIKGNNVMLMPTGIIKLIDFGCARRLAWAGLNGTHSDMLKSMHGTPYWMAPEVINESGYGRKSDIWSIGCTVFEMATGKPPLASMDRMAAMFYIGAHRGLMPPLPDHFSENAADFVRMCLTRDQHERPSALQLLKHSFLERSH", "UniProt A0A0R6L508, sequence (whole entry, looked up)": "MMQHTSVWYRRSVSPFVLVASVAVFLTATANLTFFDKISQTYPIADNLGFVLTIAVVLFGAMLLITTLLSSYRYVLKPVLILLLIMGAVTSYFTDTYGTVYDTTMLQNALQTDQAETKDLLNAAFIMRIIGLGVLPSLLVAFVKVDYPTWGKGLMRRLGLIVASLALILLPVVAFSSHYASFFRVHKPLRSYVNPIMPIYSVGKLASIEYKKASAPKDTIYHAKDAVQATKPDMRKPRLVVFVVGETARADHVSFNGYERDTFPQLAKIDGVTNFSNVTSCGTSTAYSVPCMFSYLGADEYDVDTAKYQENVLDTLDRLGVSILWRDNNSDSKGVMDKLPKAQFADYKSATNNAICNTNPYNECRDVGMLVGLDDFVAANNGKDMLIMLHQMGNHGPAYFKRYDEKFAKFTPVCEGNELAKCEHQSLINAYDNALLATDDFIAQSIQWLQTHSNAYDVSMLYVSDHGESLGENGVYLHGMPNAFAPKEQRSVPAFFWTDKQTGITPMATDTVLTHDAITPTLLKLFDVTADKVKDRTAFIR", "UniProt Q9Y6Y9, sequence (whole entry, looked up)": "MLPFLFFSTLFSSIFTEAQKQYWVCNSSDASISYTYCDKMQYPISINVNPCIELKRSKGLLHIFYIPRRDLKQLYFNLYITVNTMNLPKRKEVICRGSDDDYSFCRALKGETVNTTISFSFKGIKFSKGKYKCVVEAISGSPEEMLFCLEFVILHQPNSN", "UniProt P30048, sequence (whole entry, looked up)": "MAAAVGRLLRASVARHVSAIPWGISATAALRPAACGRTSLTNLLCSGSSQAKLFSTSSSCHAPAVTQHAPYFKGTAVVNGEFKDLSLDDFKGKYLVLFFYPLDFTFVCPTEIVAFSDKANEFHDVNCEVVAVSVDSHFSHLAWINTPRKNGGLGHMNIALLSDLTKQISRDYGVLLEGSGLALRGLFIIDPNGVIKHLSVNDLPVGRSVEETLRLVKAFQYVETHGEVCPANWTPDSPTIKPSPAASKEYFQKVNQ", "UniProt P10997, sequence (whole entry, looked up)": "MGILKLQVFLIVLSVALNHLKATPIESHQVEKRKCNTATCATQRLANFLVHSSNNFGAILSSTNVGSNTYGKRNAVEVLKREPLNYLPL"}
{"SMILES": "C/C=C(\\C=O)[C@@H]1C[C@H]2c3[nH]c4ccccc4c3CCN2C=C1C(=O)OC", "target": "PRDX3 (Homo sapiens, UniProt P30048)", "technique": "SPR", "Kd": "0.57 µM"}
{"SMILES": "Cc1n[nH]c(N)c1-c1ccccc1", "target": "CSNK1A1", "technique": "SPR", "Kd": "> 50 µM"}
{"SMILES": "Cc1cc2nc3c(=O)[nH]c(=O)nc-3n(C[C@H](O)[C@H](O)[C@H](O)COP(=O)(O)OP(=O)(O)OC[C@H]3O[C@@H](n4cnc5c(N)ncnc54)[C@H](O)[C@@H]3O)c2cc1C", "target": "DLD (Homo sapiens, UniProt P09622, K430R)", "technique": "SPR", "Kd": "1.61 µM"}
{"SMILES": "Nc1ncnc2c1ncn2[C@@H]1O[C@H](C[C@@H](N)CC[C@H](N)C(=O)O)[C@@H](O)[C@H]1O", "target": "tapT", "technique": "SPR", "Kd": "795 µM"}
{"SMILES": "CCn1c2ccccc2c2cc(Nc3ccnc(NCCCN4CCOCC4)n3)ccc21", "target": "CSNK1A1", "technique": "SPR", "Kd": "> 50 µM"}
{"SMILES": "CC(=O)NC(Cc1ccccc1Cl)C(=O)N1CCCC1C(=O)N1CCCC1C(=O)N1CCC2C=CC3C(C)CC(C(=O)O)N3C(=O)C21 (centres unmarked)", "target": "Protein enabled homolog (ENAH, UniProt Q8N8S7)", "technique": "fluorescence", "Kd": "~0.3 µM"}
{"SMILES": "OC[C@H]1OC(O)[C@H](O)[C@@H](O)[C@@H]1O (some centres unmarked)", "target": "Probable ATP-dependent RNA helicase DDX6 (Homo sapiens, UniProt P26196)", "technique": "MST", "Kd": "629 µM"}
{"SMILES": "C[C@H]1[C@H](OC(=O)CCC(=O)O)O[C@@H]2O[C@@]3(C)CC[C@H]4[C@H](C)CC[C@@H]1[C@@]24OO3", "target": "LY96 (Homo sapiens, UniProt Q9Y6Y9)", "technique": "SPR", "Kd": "3.2 µM"}
{"SMILES": "N#Cc1cncc2c1NCCC2", "target": "CSNK1A1", "technique": "SPR", "Kd": "> 50 µM"}
{"SMILES": "CC(C)CC(=O)N[C@H](C(=O)N[C@H](C(=O)N[C@@H](CC(C)C)[C@@H](O)CC(=O)N[C@@H](C)C(=O)N[C@@H](CC(C)C)[C@@H](O)CC(N)=O)C(C)C)C(C)C", "target": "Cathepsin D (CTSD, Homo sapiens, UniProt P07339)", "technique": "SPR", "Kd": "0.72 µM"}
{"SMILES": "COc1ccc([C@@H]2CC(=O)c3c(O)cc(O[C@@H]4O[C@H](CO)[C@@H](O)[C@H](O)[C@H]4O[C@@H]4O[C@@H](C)[C@H](O)[C@@H](O)[C@H]4O)cc3O2)cc1O", "target": "IAPP (Homo sapiens, UniProt P10997)", "technique": "ITC", "Kd": "4.67 µM"}
{"SMILES": "C[S+](CC[C@H](N)C(=O)O)C[C@H]1O[C@@H](n2cnc3c(N)ncnc32)[C@H](O)[C@@H]1O (some centres unmarked)", "target": "tapT", "technique": "ITC", "Kd": "57.7 µM"}
{"SMILES": "O=[N+]([O-])c1ccc(O)c2ncccc12", "target": "mcr1 (Escherichia coli, UniProt A0A0R6L508)", "technique": "SPR", "Kd": "7.6 µM"}
{"SMILES": "Brc1cnc2nccnc2c1", "target": "CSNK1A1", "technique": "SPR", "Kd": "> 50 µM"}
{"SMILES": "Nc1ncnc2c1ncn2[C@@H]1O[C@H](COP(=O)(O)OP(=O)(O)OP(=O)(O)O)[C@@H](O)[C@H]1O", "target": "dnaA (Escherichia coli, UniProt P03004, E244K)", "Kd": "0.03 µM"}
{"SMILES": "CCc1ccc(C2C(C#N)C(=N)SC(=N)C2C#N)cc1 (centres unmarked)", "target": "CSNK1A1", "technique": "SPR", "Kd": "> 50 µM"}
{"SMILES": "Cc1cnc(-c2ccc(-c3ccc(NC(=O)Nc4c(F)cc(F)cc4F)cc3F)c3c2C(=O)NC3)[nH]1", "target": "MAP3K19 (Homo sapiens, UniProt Q56UN5)", "technique": "competition with immobilised ligand", "Kd": "0.0039 µM"}
